Measurements collected from several papers.
Each numbered part is a random draw from the data of one study; scales do not carry over between parts. Changes are numbered by the printed parent chain.

Block 1
Target: Ras GTPase-activating protein-binding protein 1, RRM domain (G3BP1, Homo sapiens, UniProt Q13283)
UniProt Q13283, sequence (whole entry, looked up): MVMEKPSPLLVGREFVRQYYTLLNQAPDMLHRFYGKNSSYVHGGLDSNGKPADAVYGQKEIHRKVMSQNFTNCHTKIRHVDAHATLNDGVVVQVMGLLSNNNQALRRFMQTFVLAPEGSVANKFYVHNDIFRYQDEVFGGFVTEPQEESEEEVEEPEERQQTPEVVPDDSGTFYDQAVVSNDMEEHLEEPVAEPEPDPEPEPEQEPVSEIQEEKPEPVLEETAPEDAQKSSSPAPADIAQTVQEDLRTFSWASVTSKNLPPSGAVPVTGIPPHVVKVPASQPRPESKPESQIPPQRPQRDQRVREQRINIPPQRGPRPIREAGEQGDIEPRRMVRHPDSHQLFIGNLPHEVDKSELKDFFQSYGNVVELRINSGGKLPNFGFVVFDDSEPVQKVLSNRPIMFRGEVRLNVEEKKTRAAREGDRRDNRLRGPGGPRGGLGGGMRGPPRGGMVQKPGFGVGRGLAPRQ
Method: RNA Bind-n-Seq
Molecule type: RNA
Medium: in vitro
Concentration: 1 µM
Notes: whole 134-nt RNA, ends assumed
Together with: 150 mM KCl
Baseline: input library
Reading: higher = stronger binding
Measurement: log2 enrichment
Constant ends, left off below: GGGAGUUCUACAGUCCGACGAUC … UGGAAUUCUCGGGUGUCAAGG
CCUGUGCUACACAUCGUAUGUACCGAAUCGGAAAAAAAGGGAAAAAAAGGGAAAAAAAGGGAAAGUAUUAUGUUACGCCGUUCGGAUCUG: 0.0255
AAGUCCUGUGCUACACAUCGUAUGUACCGAAUCGGGAGGGUUUUUGGGUUUUUGGGAAAGUAUUAUGUUACGCCGUUCGGAUCUGCACUU: 0.381
CUGUGCUACACAUCGUAUGUACCGAAUCGGGUUUUUUUGGGGUUUUUUUGGGGUUUUUUUGGAAAGUAUUAUGUUACGCCGUUCGGAUCU: -0.143
UGGCAGCGGCCAUGGACCGCUUCGUUUGGACCAGCGGCCUCCUGGAGAUCAACGAGACCCUGGUGAUCCAGCAGCGCGGGGUGCGAAUCU: -0.465
ACCAUGCAGCUGGGCAUCUUUGGGAAGUGGGGCAAGGGGGGGAUAGGGAGGGGGGUAACACUUUGGGAACAGGUGGUCCCAGGUCGUUUC: -0.356
CCUGUGCUACACAUCGUAUGUACCGAAUCAAAUUUUUUUAAACCCCCCCAAACCCCCAAAAAAGUAUUAUGUUACGCCGUUCGGAUCUGC: -1.14
UCCUGUGCUACACAUCGUAUGUACCGAAUCGGGGAAAAAGGGGAAAAAAAGGGGAGGGGAAAGUAUUAUGUUACGCCGUUCGGAUCUGCA: 0.676
AAGUCCUGUGCUACACAUCGUAUGUACCGAAUCGGUUUUGGGGUUUUGGGUUUUGGAAAGUAUUAUGUUACGCCGUUCGGAUCUGCACUU: -0.254
GUCCUGUGCUACACAUCGUAUGUACCGAAUCAAAUUUUUAAAUUUAAACCCCCCCAAAAAAGUAUUAUGUUACGCCGUUCGGAUCUGCAC: -1.08
CUGUGCUACACAUCGUAUGUACCGAAUCGGGGAAAAAAAGGGAAAAAAAGGAAAAAAAGGGAAAGUAUUAUGUUACGCCGUUCGGAUCUG: 0.0344
CACAGACAAAACGCACCCACACAGACACAGAGGGAAGGGGUUGGGAUGGGGACAGGGUGCACAGCAGGGCGGGGUAGGACCCCAGCCCCU: -0.146
UGGCCCUGGUGGCAUGCGGGGAGGAAGAGGUGGCCUCAUGGAUCGUGGUGGUCCCGGUGGAAUGUUCAGAGGUGGCCGUGAUGGAGACAG: 1.42
CCUGUGCUACACAUCGUAUGUACCGAAUCGGGUUUUUUUGGGAAAAAAAGGGUUUUUGGGAAAGUAUUAUGUUACGCCGUUCGGAUCUGC: -0.411
CCUGUGCUACACAUCGUAUGUACCGAAUCGGGGUUUUUGGGGUUUUUUUGGGGUUUGGGGAAAGUAUUAUGUUACGCCGUUCGGAUCUGC: 0.797

Block 2
Target: CCNE2, cyclin fold, Cln2 fusion (human)
Method: yeast growth competition, sequencing
Medium: yeast
Notes: strong parent motif
Baseline: not given
Reading: higher = stronger binding
Measurement: normalised enrichment score
Starting sequence: E2F1 docking peptide (human); PPVKRRLDFETDH
P2H: 6.06
L7F: 0.318
E10S: 6.07
T11S: 5.89
E10G: 6.3
D12V: 6.55
F9N: 0.314
K4C: 5.03
P2S: 6.02
R5S: -0.205
P2E: 4.06
V3Q: 0.877
E10F: 5.4
F9K: 0.736
L7N: 0.181
K4H: 1.68
K4Y: 1.05
E10M: 5.8
D8T: 6.16
V3K: 0.848
D12N: 6.4
L7R: 0.0774

Block 3
Target: RING finger protein unkempt homolog, zinc fingers 1-6, SBP tag (UNK, Homo sapiens, UniProt Q9C0B0, residues 30-357)
UniProt Q9C0B0, sequence (30-357, looked up): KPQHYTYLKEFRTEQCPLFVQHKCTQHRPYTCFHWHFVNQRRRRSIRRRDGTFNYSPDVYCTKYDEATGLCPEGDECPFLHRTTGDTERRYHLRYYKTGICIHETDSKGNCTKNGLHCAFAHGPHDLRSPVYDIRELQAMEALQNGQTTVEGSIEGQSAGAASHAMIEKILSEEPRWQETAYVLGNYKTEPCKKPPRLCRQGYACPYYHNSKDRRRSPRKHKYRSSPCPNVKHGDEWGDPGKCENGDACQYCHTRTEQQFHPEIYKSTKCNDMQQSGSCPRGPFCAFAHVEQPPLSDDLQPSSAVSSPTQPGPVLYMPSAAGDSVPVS
Method: RNA Bind-n-Seq
Molecule type: RNA
Medium: in vitro
Concentration: 100 nM
Notes: RNA with constant flanks, vertebrate orthologous sites, ends assumed
Baseline: input RNA pool
Reading: higher = stronger binding
Measurement: bound/input enrichment
Constant ends, left off below: GGGAGUUCUACAGUCCGACGAUC … CAACAGAGGAUUGAGCAUCA
GAUUCUGAGUCCUCCACUUGUUCUCACUGGUGAUCCUUCAAAGUUGAGUCUAGAAGGGACUAGAAAUUUUCUUUCUCUGGGGCCUCUCGUCAGAGAGACAGGUGUUAAAAACAGGAAUAU: 0.476 ratio
GUUGUGACCCAUUUAAUAUACACAAAAAACUAGCCAAAAAGAAUUUGCAUGUGAUUGACUUAGAUGAUGCCACCUUCCUGAGUGCAAAAUUUGGAAGGCAGCUGGUACCUGGUUGGAAGC: 0.839 ratio
UUUAAAGUCAUUUUUUCAUGUUUCCUGUAAAUAAUGGAUAAUCAUUUUUAUUUUAUUUUUAAGUGCUGUUUUAACAAUGUGGAUAGACCAUAAAUGUACUUGCUGAAUUCAUUCAUUUUU: 0.424 ratio
UUCAGGCACAACUGACUGGUUCACAACAUCCCUUACAUAGUUAUCUGUCAAGUGCAAGUAUUGGUAAUUUUCAGGAAACAUCUAGACAGUCAUCUUUAUCCUGUAGCUCAAUUCGAGAUU: 0.738 ratio
GCUCUAGUUCUUAACAACCGACACUCCUACAAGAUUUAGAAAAAAGUUUACAACAUAAUCUAGUUUACAGAAAAAUCUUGUGCUAGAAUACUUUUUAAAAGGUAUUUUGAAUACCAUUAA: 0.655 ratio
UAUUAUUCAUUUGAUUGAAAUUAUUUAGAUAAGUUAUUACUGUUUUCUUUCAAACAACAUAUCCUAUUUUUCAUCUAAUUUACAAAUAGCAGUUUGUGUGAUCUCUUCACAUACCAGAAU: 0.272 ratio
GAGCGCUGCUGUGCAGAUUGACCACACUGAAUGCAGAGUAGUAAUUUUCAUAGUCACAGUAAGGUAGCUUUAGGGCAGUAUCACCAUGUUCUCUCGUGUGCAGUUUUUGAAAAUGUACAA: 0.454 ratio
AAAUAUACUUCAUGCCAUGGACUCCAUAUCGCACUGAUACUUUGAUAGAAUAUGCUUCUUUAGAGGACUUCCAAAACGGACGCCAACAGACAACAUAUAAACUUCCAAAUCGAGUGGAUG: 1.14 ratio
GAGCUCAGCACAUAACAACUGACACCCCCAAAAGGCGUAGAAAAGGUUUACAAAAUAAUCUAGUUUUACGAAGAAAUCUUGUGCUAGAAUACUUUUUAAAGUAUUUUUGAAUACCAUUAA: 0.263 ratio
CAUGUAGUUUGUUUUUAAUUUCAAGCAAAUCUUAUUGUACUUGAAUGUGCCCUGUUUUGUUAGCACACCUAGACUUGCUGUAAACUGUACUCAUGUCCCAGUAUGUACGUUCUUUCUAUG: 1.2 ratio
CUGUUGUUAAGCACUGUGUUCCAGACCGUGUCUGACUUUAGUGUAACCUAGGAGAGUUUAUAGUUUUAUUUUAAUGAAACCCUCAUUGGCACGGAGCAGUGGGAAAAAGCAGUGUCUCUC: 0.958 ratio

Block 4
Target: Histone acetyltransferase KAT6A, winged helix 2, GST fusion (KAT6A, Homo sapiens, UniProt Q92794, residues 85-181)
Method: protein binding microarray
Molecule type: double-stranded DNA, one strand shown
Medium: in vitro
Concentration: not given
Notes: 8-mer, flanks averaged, mean of 2 arrays, mostly near background
Baseline: not given
Reading: higher = stronger binding
Measurement: E-score
Target sequence (chain): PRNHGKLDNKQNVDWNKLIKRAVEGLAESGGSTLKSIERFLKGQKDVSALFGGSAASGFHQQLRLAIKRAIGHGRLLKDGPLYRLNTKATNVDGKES
ACGCAACC: 0.0422
GTGACTGA: -0.0916
CTTGCGGA: 0.0775
AGCGCATG: -0.0441
AAGCTACC: 0.0483
GACATGCC: -0.0416
CACTGCTA: 0.0193
AAGCGCTA: 0.166
GGCCGTAC: 0.137
GCGGGCCC: 0.0935
ATGGCCGC: 0.0479
AGCGGTAA: -0.0733
CTATCTGC: -0.122
CATTCGAC: -0.00834
ACTCTTCC: -0.0661
TCCTCAGA: -0.014
AAACAGAA: 0.165
CGGCGAAC: 0.243
AGAGTTAC: -0.203
CGGGCCCC: 0.214
CCTTTATA: -0.156
ATGTTAAG: -0.00212
AGCTATGA: -0.118
AAAGATCA: 0.0747

Block 5
Target: RNA binding protein fox-1 homolog 2, RRM domain, GST-SBP tag (RBFOX2, Homo sapiens, UniProt O43251-10, residues 100-194)
Method: RNA Bind-n-Seq
Molecule type: RNA
Medium: in vitro
Concentration: 365 nM
Notes: natural RNA segment, single round, ends assumed
Baseline: no-protein control
Reading: higher = stronger binding
Measurement: RBNS enrichment (R)
Constant ends, left off below: GGGAGUUCUACAGUCCGACGAUC … UGGAAUUCUCGGGUGCCAA
Construct (chain): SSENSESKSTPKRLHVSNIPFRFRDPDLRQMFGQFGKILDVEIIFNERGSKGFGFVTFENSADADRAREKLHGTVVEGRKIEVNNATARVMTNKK
AAAAUUCAGAGAUGAGAUCUUAACACAGCUUCACUCAGGAAGAGACUCACAUGACAGAGCAACUCUGAAUGCAAAGUGACAUCUUCACAAAUGCCAUGGCCAUUGCUGAC: 0.425
AAACUAGAUAAAUGACCUCAUUUUCUUGAGCUUGAAUUCAUUUUUAAUUUUAAUUUUAUUUUAUACAACGUGUAGACGGUUCCCUGUUCUCUGCAUUUAGAAGUAUACAC: 1.31
CAGGUUAUGCCUCAUGCUGACUUGCAGAGUUCAUGGAAUGUAACUAUAUCAUCCUUUAUCCCUGAGGUCACCUGGAAUCAGAUUAUUAAGGGAAUAAGCCAUGACGUCAA: 0.263
GUGUCCAUCUCUUAGUUAGCUACCUUAACUGUCCACCCUUACUACCUGUGGGAUCGUUGCCUGGUUUGUCUUCUCUGUGUCCUGGAGCAAAGCCAGUUCCUAAAACUAAA: 0.434
CCCGGUCCCCACACACUUCGCACCCAAUGUGGGCUGGGGGGCUGCUCAGACUCCUGUGAAGGCACAGCUACAGUUGUGGCCUGAAGGAGGCCCAGCUGGGACUGUGUGCU: 0.501
GAGAAUGUGCUAGAGACAGCCCCUGUCUUCUUGGCGUGGUUUAUAUGUCCGGGAUCUGGAUCAGAUUCUGGGGGCUCAGAAACGUCGGUUGCAUUGAGCUACUGGGGGUA: 0.724
CUAGUCUCAGGGGCUCCAACAUCCGCCCUUGACCUUGGCUGGCACUGUAUGCAUGUAGUGCACAAACACGUGACGGAGGAACACAUAAAAGGCUUGUAUGUGUUAUCAUU: 14.7
GAAUCCUCCCCUUUCUGGCACAAGACAGAAAGCAAGCAGCUGAGUAACUGGAGACCAGUGGAAAUGAGUAUCAUAGAUGGUCAGGCUGCAGAUGGAUCCCAGAACCUGCA: 3.88
UCCCUUCUUAAAGCCAACAGGCUCAGUUUACAAACCUGUGAGCUACUGUUGGCUGCUGCCCUCCUUCCCAGUGAAAGGUACAAAGCAAUAAGCAUCAUGCAUCCUCCCCU: 2.35
GGUGCCUCAUGCUGACUUCUCCAGUAGGGUUUCAGGACAAACUACCAAGGAAUUGCCUCAGCCUCCUACCAGUCCUCCCUCACCCACCUUCUGUCUAGGUUCACUUGGUU: 0.366
CUCAUGUGGCUGGAAGAUCCUGCGGGUGGGGCUUGGGGCUCACACACCUGUAGCACUUACUGGUAGGACCAAGCAUCUUGGGGGGGUGGCCGCUGAGUGGCAGGGGACAG: 0.446
CCGGUGACCGCGAGGAGUCGGUGAGGUGGGACUGGUGACUCUCAGAAGCUCCUCGGUGCACUUUUGUCUCGGCAGAGCUGGGAGGGAGCAGGCGCUCGCGGAAGCACGUC: 0.809

Repeated from above (block 3):
GCUCUAGUUCUUAACAACCGACACUCCUACAAGAUUUAGAAAAAAGUUUACAACAUAAUCUAGUUUACAGAAAAAUCUUGUGCUAGAAUACUUUUUAAAAGGUAUUUUGAAUACCAUUAA: 0.655 ratio
GAGCGCUGCUGUGCAGAUUGACCACACUGAAUGCAGAGUAGUAAUUUUCAUAGUCACAGUAAGGUAGCUUUAGGGCAGUAUCACCAUGUUCUCUCGUGUGCAGUUUUUGAAAAUGUACAA: 0.454 ratio
GAUUCUGAGUCCUCCACUUGUUCUCACUGGUGAUCCUUCAAAGUUGAGUCUAGAAGGGACUAGAAAUUUUCUUUCUCUGGGGCCUCUCGUCAGAGAGACAGGUGUUAAAAACAGGAAUAU: 0.476 ratio
GAGCUCAGCACAUAACAACUGACACCCCCAAAAGGCGUAGAAAAGGUUUACAAAAUAAUCUAGUUUUACGAAGAAAUCUUGUGCUAGAAUACUUUUUAAAGUAUUUUUGAAUACCAUUAA: 0.263 ratio
AAAUAUACUUCAUGCCAUGGACUCCAUAUCGCACUGAUACUUUGAUAGAAUAUGCUUCUUUAGAGGACUUCCAAAACGGACGCCAACAGACAACAUAUAAACUUCCAAAUCGAGUGGAUG: 1.14 ratio
UUUAAAGUCAUUUUUUCAUGUUUCCUGUAAAUAAUGGAUAAUCAUUUUUAUUUUAUUUUUAAGUGCUGUUUUAACAAUGUGGAUAGACCAUAAAUGUACUUGCUGAAUUCAUUCAUUUUU: 0.424 ratio
UAUUAUUCAUUUGAUUGAAAUUAUUUAGAUAAGUUAUUACUGUUUUCUUUCAAACAACAUAUCCUAUUUUUCAUCUAAUUUACAAAUAGCAGUUUGUGUGAUCUCUUCACAUACCAGAAU: 0.272 ratio
UUCAGGCACAACUGACUGGUUCACAACAUCCCUUACAUAGUUAUCUGUCAAGUGCAAGUAUUGGUAAUUUUCAGGAAACAUCUAGACAGUCAUCUUUAUCCUGUAGCUCAAUUCGAGAUU: 0.738 ratio
CUGUUGUUAAGCACUGUGUUCCAGACCGUGUCUGACUUUAGUGUAACCUAGGAGAGUUUAUAGUUUUAUUUUAAUGAAACCCUCAUUGGCACGGAGCAGUGGGAAAAAGCAGUGUCUCUC: 0.958 ratio
GUUGUGACCCAUUUAAUAUACACAAAAAACUAGCCAAAAAGAAUUUGCAUGUGAUUGACUUAGAUGAUGCCACCUUCCUGAGUGCAAAAUUUGGAAGGCAGCUGGUACCUGGUUGGAAGC: 0.839 ratio
